{"data": "Measurements gathered from unrelated publications", "organism": "Staphylococcus aureus", "note": "Each line is one published result; not all experiments were run side by side. ± gives the spread as reported."}
{"SMILES": "CCCCCCCCCC(=O)N[C@@H](Cc1c[nH]c2ccccc12)C(=O)N[C@H](CC(N)=O)C(=O)N[C@@H](CC(=O)O)C(=O)N[C@@H]1C(=O)NCC(=O)N[C@@H](CCCNC(=O)OC2/C=C/CCCCC2)C(=O)N[C@@H](CC(=O)O)C(=O)N[C@H](C)C(=O)N[C@@H](CC(=O)O)C(=O)NCC(=O)N[C@H](CO)C(=O)N[C@@H]([C@H](C)CC(=O)O)C(=O)N[C@@H](CC(=O)c2ccccc2N)C(=O)O[C@@H]1C (stereo partly shown)", "system": "MRSA biofilm, porous glass beads", "setting": "24 h, 37 °C, TAG gel", "quantity": "MBEC", "result": "64 µg/mL"}
{"SMILES": "CC[C@H](C)[C@H](NC(=O)[C@H](CCCCN)NC(=O)[C@H](CCCCN)NC(=O)[C@H](CC(C)C)NC(=O)[C@H](CCCCN)NC(=O)[C@H](CCC(=O)O)NC(=O)[C@H](CCCCN)NC(=O)[C@@H](NC(=O)[C@H](CCCCN)NC(=O)[C@H](CC(N)=O)NC(=O)[C@H](CCCNC(=N)N)NC(=O)[C@H](Cc1ccccc1)NC(=O)[C@H](CCCCN)NC(=O)[C@H](CCCNC(=N)N)NC(=O)[C@H](CC(C)C)NC(=O)[C@H](CCCNC(=N)N)NC(=O)[C@H](CCCCN)NC(=O)[C@H](CCCNC(=N)N)NC(=O)[C@H](CC(C)C)NC(=O)[C@@H](N)CC(C)C)[C@@H](C)CC)C(=O)NCC(=O)N[C@@H](CCC(N)=O)C(=O)N[C@@H](CCCCN)C(=O)N[C@H](C(=O)N[C@@H](CCC(N)=O)C(=O)NCC(=O)N[C@@H](Cc1ccccc1)C(=O)N[C@H](C(=O)N1CCC[C@H]1C(=O)N[C@@H](CCCCN)C(=O)N[C@@H](CC(C)C)C(=O)N[C@H](C(=O)N1CCC[C@H]1C(=O)N[C@@H](CCCNC(=N)N)C(=O)N[C@H](C(=O)N[C@@H](CCC(=O)O)C(=O)N[C@@H](CO)C(=O)O)[C@@H](C)O)C(C)C)C(C)C)[C@@H](C)CC", "assay": "inhibition zone", "system": "MRSA P1374", "quantity": "lethal concentration", "result": "2.08 µM"}
{"SMILES": "CN1CC(=O)N=C1N.C[C@H](CCC(=O)O)[C@H]1CC[C@H]2[C@@H]3[C@H](O)C[C@@H]4C[C@H](O)CC[C@]4(C)[C@H]3CC[C@]12C", "system": "TISTR 746", "setting": "1 mg per disc, 18 to 24 h, 37 °C, 6 mm disc", "quantity": "inhibition zone diameter", "result": "9.5 ± 0.5 mm"}
{"SMILES": "CCCN1CCNC1=[S+][Ag-3]([O][N+](=O)[O-])([P+](c1ccccc1)(c1ccccc1)c1ccccc1)[P+](c1ccccc1)(c1ccccc1)c1ccccc1", "system": "MTCC 740, DMSO", "setting": "0.1 mL of 50 mg/mL in 8 mm well, 18 to 24 h", "quantity": "inhibition zone diameter", "result": "20 mm"}
{"SMILES": "Cc1cc(=O)nc(NC(=O)NCCCCCCNC(=O)NCCCCCCNC(=O)OCCOCCOCCOCCOCCOCCOCC(=O)N[C@@H](CCCCN)C(=O)N[C@@H](CCCCN)C(=O)N[C@@H](Cc2ccccc2)C(=O)N2CCC[C@H]2C(=O)N[C@@H](Cc2c[nH]c3ccccc23)C(=O)N[C@@H](Cc2c[nH]c3ccccc23)C(=O)N[C@@H](Cc2c[nH]c3ccccc23)C(=O)N2CCC[C@H]2C(=O)N[C@@H](Cc2ccccc2)C(=O)N[C@@H](CCCCN)C(=O)N[C@@H](CCCCN)C(N)=O)[nH]1", "system": "MSSA RN 4220, RPMI medium", "setting": "24 h, 37 °C", "quantity": "LC99.9", "result": "15 to 30 µM"}
{"SMILES": "CCc1[nH]c(C(=O)N[C@@H]2CCN(c3nnc(C(C)(C)O)s3)C[C@@H]2OC)nc1Cl", "system": "MRSA ATCC 43300, mice, sepsis model", "setting": "intragastric, 10 mg/kg, day 7", "quantity": "survival", "result": "25%"}
{"SMILES": "CC(=O)N[C@H]1CNC(=O)[C@H](Cc2ccccc2)NC(=O)[C@H](Cc2ccccc2)NC(=O)COCCOCCNC1=O", "assay": "reporter gene", "system": "AH1677", "setting": "10 µM", "how to read": "baseline: DMSO", "quantity": "AgrC activity", "result": "inactive"}
{"SMILES": "c1ccc(CN2CCOCCOCCN(CCCCCCCCCCCCCCN3CCOCCOCCN(CCCCCCCCCCCCCCN4CCOCCOCCN(Cc5ccccc5)CCOCCOCC4)CCOCCOCC3)CCOCCOCC2)cc1", "assay": "ethidium bromide activity", "system": "1199B", "setting": "half MIC, added: ethidium bromide", "how to read": "baseline: ethidium bromide alone", "quantity": "fold enhancement", "result": "32 fold"}
{"SMILES": "C[C@H]1COc2c(N3CCN(C)CC3)c(F)cc3c(=O)c(C(=O)N[C@@H](CCCNC(=N)N)C(=O)N[C@@H](Cc4ccc(-c5ccccc5)cc4)C(=O)N[C@@H](CCCNC(=N)N)C(=O)N[C@@H](Cc4ccc(-c5ccccc5)cc4)C(=O)N[C@@H](CCCNC(=N)N)C(N)=O)cn1c23", "system": "ATCC BAA-44", "how to read": "baseline: IC50 MDCK cells over MIC", "quantity": "selectivity index", "result": 4.4}
{"SMILES": "CCCCc1ccc(-c2nc(C)c(C(C)=NNC(=N)N)s2)cc1", "system": "VRS4 VRSA", "quantity": "MBC", "result": "1.3 µg/mL"}
{"SMILES": "CCCCCCc1ccc(Oc2ccc(Oc3cccc(=O)[nH]3)cc2)c(O)c1", "system": "RN4220", "quantity": "concentration at maximal post-antibiotic effect", "result": "4 x MIC"}
{"SMILES": "C=Cc1cc(OC)c2c(c1)c(=O)oc1c2cc(OC)c2c(O)ccc([C@@H]3O[C@H](C)[C@H](O)[C@@](C)(O)[C@H]3O)c21", "system": "MRSA USA300, mouse epicutaneous infection", "setting": "9 mg/kg, day 6", "quantity": "bacterial burden decrease", "result": "~7.2 log10 per wound"}
{"SMILES": "CCOC(=O)c1sc(N/N=C/c2c(-c3ccccc3)nc3ncccn23)nc1C", "assay": "microbial growth, well diffusion", "system": "ATCC23235", "setting": "100 µg/mL", "quantity": "inhibition zone", "result": "13 mm"}
{"SMILES": "CC[C@H](C)[C@@H]1NC(=O)CNC(=O)CNC(=O)[C@H](CO)NC(=O)[C@H]([C@@H](C)CC)NC(=O)[C@H](CCCCN)NC(=O)[C@H](CO)NC(=O)[C@H](CC(C)C)NC(=O)[C@@H](C(C)C)NC(=O)[C@@H]2CCCN2C(=O)[C@H]([C@@H](C)CC)NC(=O)[C@H](C(C)C)NC(=O)[C@H](CC(C)C)NC(=O)[C@@H]2CCCN2C(=O)CNC1=O", "system": "ATCC 25923", "setting": "MIC, 2 h", "quantity": "log reduction in CFU", "result": "3 log"}
{"SMILES": "NCCCC[C@H](NC(=O)[C@H](CCCCN)NC(=O)[C@H](Cc1ccccc1)NC(=O)[C@@H]1CCCN1C(=O)[C@H](Cc1c[nH]c2ccccc12)NC(=O)[C@H](Cc1c[nH]c2ccccc12)NC(=O)[C@H](Cc1c[nH]c2ccccc12)NC(=O)[C@@H]1CCCN1C(=O)[C@H](Cc1ccccc1)NC(=O)[C@H](CCCCN)NC(=O)[C@@H](N)CCCCN)C(N)=O", "system": "MRSA AMC 201, RPMI medium", "setting": "24 h, 37 °C", "quantity": "LC99.9", "result": "30 µM"}
{"SMILES": "CC(CCCOC(=O)CCC[N+](C)(C)C)C1CCC2C3CCC4CC(OC(=O)CCC[N+](C)(C)C)CCC4(C)C3CCC12C (stereo not shown)", "system": "MRSA ATCC BAA-44, mouse red blood cells", "how to read": "baseline: HC50 over MIC", "quantity": "selectivity index", "result": 20}
{"note": "Some of these lines once more:"}
{"SMILES": "NCCCC[C@H](NC(=O)[C@H](CCCCN)NC(=O)[C@H](Cc1ccccc1)NC(=O)[C@@H]1CCCN1C(=O)[C@H](Cc1c[nH]c2ccccc12)NC(=O)[C@H](Cc1c[nH]c2ccccc12)NC(=O)[C@H](Cc1c[nH]c2ccccc12)NC(=O)[C@@H]1CCCN1C(=O)[C@H](Cc1ccccc1)NC(=O)[C@H](CCCCN)NC(=O)[C@@H](N)CCCCN)C(N)=O", "system": "MRSA AMC 201, RPMI medium", "setting": "24 h, 37 °C", "quantity": "LC99.9", "result": "30 µM"}
{"SMILES": "CC(CCCOC(=O)CCC[N+](C)(C)C)C1CCC2C3CCC4CC(OC(=O)CCC[N+](C)(C)C)CCC4(C)C3CCC12C (stereo not shown)", "system": "MRSA ATCC BAA-44, mouse red blood cells", "how to read": "baseline: HC50 over MIC", "quantity": "selectivity index", "result": 20}
